Measurements collected from several papers.
Technique: steady-state kinetics
B1: putA D779W (Bradyrhizobium diazoefficiens, UniProt Q89E26); chain MPNIPPPFTAPYAPDDAEIAARLLPASHLSPPQEARIHRTATRLIEAIRKRDDRLGGVEDMLREFALSTKEGLALMVLAEALLRVPDARTADQFIEDKLGEGDFIHHETKSTAFLVNASAWALGLSARVIQPGETPDGTIGRLVKRLGAPAVRTATRQAMRLMGNHFVLGETIEQALERGKPRSGQKTRYSFDMLGEGARTAADARRYFDAYASAIETIGKAAGNHALPDRPGISVKLSALHPRFEAISRARVMVELVPQLLDLAQRAKAHDLNFTVDAEEADRLELSLDVIAATLADPSLKGWDGFGLAIQAYQKRASAVIDYVDALARAHDRKLMVRLVKGAYWDTEIKRAQERGLDGYPVFTRKAMTDLNYVACASKLLALRPRIFPQFATHNALTVATVLEMAEGSSGFEFQRLHGMGEALYEQLAKDHADIAYRTYAPVGSHRDLLAYLVRRLLENGANSSFVAQAADYRVPVPALLQRPADAIVRPQAAAHPRIPLPCDLFAPERRNSRGVEFGARTALDQLLTDVKAETGDLKPIADATPDQAHAAVAAARAGFAGWSRTPAGIRAAALEQAAHLLESRSAHFIALLQREGGKTLDDALSELREAADFCRYYAAQGRKLFGSETAMPGPTGESNALTMRGRGVFVAISPWNFPLAIFLGQVTAALMAGNSVVAKPAEQTPRIAREAVALLHEAGIPKSALYLVTGDGRIGAALTAHPDIAGVVFTGSTEVARSINRALAAKDGPIVPLIAETGGINAMIADATALPEQVADWVVTSAFRSAGQRCSALRLLFVQEDVADRMIEMVAGAARELKIGDPSDVATHVGPVIDVEAKQRLDAHIARMKTEARLHFAGPAPEGCFVAPHIFELTEAGQLTEEVFGPILHVVRYRPENLERVLRAIERTGYGLTLGVHSRIDDSIEAIIDRVQVGNIYVNRNMIGAVVGVQPFGGNGLSGTGPKAGGPHYLARFATEQTVTINTAAAGGNAALLAGEE
B2: AARS2 (Homo sapiens, UniProt Q5JTZ9); chain SHRPLSSEPPAAKASAVRAAFLNFFRDRHGHRLVPSASVRPRGDPSLLFVNAGMNQFKPIFLGTVDPRSEMAGFRRVANSQKCVRAGGHHNDLEDVGRDLSHHTFFEMLGNWAFGGEYFKEEACNMAWELLTQVYGIPEERLWISYFDGDPKAGLDPDLETRDIWLSLGVPASRVLSFGPQENFWEMGDTGPCGPCTEIHYDLAGGVGAPQLVELWNLVFMQHNREADGSLQPLPQRHVDTGMGLERLVAVLQGKHSTYDTDLFSPLLNAIQQGCRAPPYLGRVGVADEGRTDTAYRVVADHIRTLSVCISDGIFPGMSGPPLVLRRILRRAVRFSMEILKAPPGFLGSLVPVVVETLGDAYPELQRNSAQIANLVSEDEAAFLASLERGRRIIDRTLRTLGPSDMFPAEVAWSLSLCGDLGLPLDMVELMLEEKGVQLDSAGLERLAQEEAQHRARQAEPVQKQGLWLDVHALGELQRQGVPPTDDSPKYNYSLRPSGSYEFGTCEAQVLQLYTEDGTAVASVGKGQRCGLLLDRTNFYAEQGGQASDRGYLVRAGQEDVLFPVARAQVCGGFILHEAVAPECLRLGDQVQLHVDEAWRLGCMAKHTATHLLNWALRQTLGPGTEQQGSHLNPEQLRLDVTTQTPLTPEQLRAVENTVQEAVGQDEAVYMEEVPLALTAQVPGLRSLDEVYPDPVRVVSVGVPVAHALDPASQAALQTSVELCCGTHLLRTGAVGDLVIIGDRQLSKGTTRLLAVTGEQAQQARELGQSLAQEVKAATERLSLGSRDVAEALRLSKDIGRLIEAVETAVMPQWQRRELLATVKMLQRRANTAIRKLQMGQAAKKTQELLERHSKGPLIVDTVSAESLSVLVKVVRQLCEQAPSTSVLLLSPQPMGKVLCACQVAQGAMPTFTAEAWALAVCSHMGGKAWGSRVVAQGTGSTTDLEAALSIAQTYALSQL
B3: PPIP5K2 (Homo sapiens, UniProt O43314); chain MSEAPRFFVGPEDTEINPGNYRHFFHHADEDDEEEDDSPPERQIVVGICSMAKKSKSKPMKEILERISLFKYITVVVFEEEVILNEPVENWPLCDCLISFHSKGFPLDKAVAYAKLRNPFVINDLNMQYLIQDRREVYSILQAEGILLPRYAILNRDPNNPKECNLIEGEDHVEVNGEVFQKPFVEKPVSAEDHNVYIYYPTSAGGGSQRLFRKIGSRSSVYSPESNVRKTGSYIYEEFMPTDGTDVKVYTVGPDYAHAEARKSPALDGKVERDSEGKEVRYPVILNAREKLIAWKVCLAFKQTVCGFDLLRANGQSYVCDVNGFSFVKNSMKYYDDCAKILGNIVMRELAPQFHIPWSIPLEAED
B4: LYS1 C205S/D319A (Saccharomyces cerevisiae, UniProt P38998); chain MAAVTLHLRAETKPLEARAALTPTTVKKLIAKGFKIYVEDSPQSTFNINEYRQAGAIIVPAGSWKTAPRDRIIIGLKEMPETDTFPLVHEHIQFAHCYKDQAGWQNVLMRFIKGHGTLYDLEFLENDQGRRVAAFGFYAGFAGAALGVRDWAFKQTHSDDEDLPAVSPYPNEKALVKDVTKDYKEALATGARKPTVLIIGALGRSGSGAIDLLHKVGIPDANILKWDIKETSRGGPFDEIPQADIFINCIYLSKPIAPFTNMEKLNNPNRRLRTVVDVSADTTNPHNPIPIYTVATVFNKPTVLVPTTAGPKLSVISIAHLPSLLPREASEFFSHDLLPSLELLPQRKTAPVWVRAKKLFDRHCARVKRSSRL
B5: POLK T408W/W214Y/W392H (Homo sapiens, UniProt Q9UBT6); chain MGLNDNKAGMEGLDKEKINKIIMEATKGSRFYGNELKKEKQVNQRIENMMQQKAQITSQQLRKAQLQVDRFAMELEQSRNLSNTIVHIDMDAFYAAVEMRDNPELKDKPIAVGSMSMLSTSNYHARRFGVRAAMPGFIAKRLCPQLIIVPPNFDKYRAVSKEVKEILADYDPNFMAMSLDEAYLNITKHLEERQNYPEDKRRYFIKMGSSVENDNPGKEVNKLSEHERSISPLLFEESPSDVQPPGDPFQVNFEEQNNPQILQNSVVFGTSAQEVVKEIRFRIEQKTTLTASAGIAPNTMLAKVCSDKNKPNGQYQILPNRQAVMDFIKDLPIRKVSGIGKVTEKMLKALGIITCTELYQQRALLSLLFSETSHHYFLHISLGLGSTHLWRDGERKSMSVERTFSEINKAEEQYSLCQELCSELAQDLQKERLKGRTVTIKLKNVNFEVKTRASTVSSVVSTAEEIFAIAKELLKTEIDADFPHPLRLRLMGVRISSFPNEEDRKHQQ
B6: enzyme (Enterococcus faecalis, UniProt Q836D9); chain MKKILTYGTFDLLHYGHINLLKKAKQQGDYLIVGLSTDAFNLEKKKQSYFSYEKRKQLLEAIRYVDLVIPETSWKQKVSDIAEFKIDTLVMGDDWQGAFDFLEVETTAKVLYLPRTPEVSTTQIKKELYYSE
B7: PTR1 (Trypanosoma brucei, UniProt O76290); chain MEAPAAVVTGAAKRIGRAIAVKLHQTGYRVVIHYHNSAEAAVSLADELNKERSNTAVVCQADLTNSNVLPASCEEIINSCFRAFGRCDVLVNNASAFYPTPLVQGDHEDNSNGKTVETQVAELIGTNAIAPFLLTMSFAQRQKGTNPNCTSSNLSIVNLCDAMVDQPCMAFSLYNMGKHALVGLTQSAALELAPYGIRVNGVAPGVSLLPVAMGEEEKDKWRRKVPLGRREASAEQIADAVIFLVSGSAQYITGSIIKVDGGLSLVHA
B8: LdmS (Staphylococcus aureus, UniProt Q2FWC5); chain MTNNGNEPNLTLSDLYDKDVVYTSRPSYISNPWLKPDEHQSNFLTGRELLIANQLPVIVHEASATDKLHQLFQVIGKEVPNSIYTFNNQQSYENLIKQLAHKENKKIYFQYIHDETILNQQYYALDKTLFVALNNKARIPEWTNGKFLPKRKVVKIEQFENEIKNWEFPLVIKPGDDLPTAGGYGVMICYHDADLQKAITRIKEATAETNSLIIEQKIEEKANYCVQFAYSESLGIQYLGAATQLTDKYGFYNGNENTTNVPEHVIEAGRQIMENGVNQGFFGVAGFDLLVDEDDNVYAIDLNFRQNGSTSMLLLANELNSGYQKFYSYHSKGDNTHFFNTILKYVKEGSLYPLSYYDGDWYGEDKVKSRFGCIWHGDSKETVLENERAFLAELEHY
B9: MPO (Homo sapiens, UniProt P05164); chain 1 VTCPEQDKYRTITGMCNNRRSPTLGASNRAFVRWLPAEYEDGFSLPYGWTPGVKRNGFPVALARAVSNEIVRFPTDQLTPDQERSLMFMQWGQLLDHDLDFTPEPAARA; chain 2 VNCETSCVQQPPCFPLKIPPNDPRIKNQADCIPFFRSCPACPGSNITIRNQINALTSFVDASMVYGSEEPLARNLRNMSNQLGLLAVNQRFQDNGRALLPFDNLHDDPCLLTNRSARIPCFLAGDTRSSEMPELTSMHTLLLREHNRLATELKSLNPRWDGERLYQEARKIVGAMVQIITYRDYLPLVLGPTAMRKYLPTYRSYNDSVDPRIANVFTNAFRYGHTLIQPFMFRLDNRYQPMEPNPRVPLSRVFFASWRVVLEGGIDPILRGLMATPAKLNRQNQIAVDEIRERLFEQVMRIGLDLPALNMQRSRDHGLPGYNAWRRFCGLPQPETVGQLGTVLRNLKLARKLMEQYGTPNNIDIWMGGVSEPLKRKGRVGPLLACIIGTQFRKLRDGDRFWWENEGVFSMQQRQALAQISLPRIICDNTGITTVSKNNIFMSNSYPRDFVNCSTLPALNLASWREAS
UniProt P38999, sequence (whole entry, looked up): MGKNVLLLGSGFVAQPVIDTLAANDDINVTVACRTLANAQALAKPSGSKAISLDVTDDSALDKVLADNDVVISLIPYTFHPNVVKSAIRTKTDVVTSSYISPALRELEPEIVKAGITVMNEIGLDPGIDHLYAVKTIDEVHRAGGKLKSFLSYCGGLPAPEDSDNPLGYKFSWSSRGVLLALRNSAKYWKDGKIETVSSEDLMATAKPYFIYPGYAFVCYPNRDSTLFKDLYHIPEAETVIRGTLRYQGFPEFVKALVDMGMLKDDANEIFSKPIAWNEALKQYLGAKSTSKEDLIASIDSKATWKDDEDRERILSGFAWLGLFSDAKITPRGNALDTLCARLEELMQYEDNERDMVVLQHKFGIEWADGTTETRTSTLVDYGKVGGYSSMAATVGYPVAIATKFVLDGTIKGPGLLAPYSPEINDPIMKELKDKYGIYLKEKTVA

Molecule | substrate | setting | Km [µM]
B1 (putA D779W) | O=C(O)[C@@H]1CCC=N1 | pH 7.5, 23 °C | 350
B2 (AARS2) | C[C@H](N)C(=O)O | pH 8, 37 °C, KCl 20 mM, added: ATP 4 mM | 5680
B3 (PPIP5K2) | Nc1ncnc2c1ncn2[C@@H]1O[C@H](COP(=O)(O)OP(=O)(O)OP(=O)(O)O)[C@@H](O)[C@H]1O | – | 22
Saccharopine reductase (Saccharomyces cerevisiae, UniProt P38999) | NC(=O)c1ccc[n+]([C@@H]2O[C@H](COP(=O)(O)OP(=O)(O)OC[C@H]3O[C@@H](n4cnc5c(N)ncnc54)[C@H](OP(=O)(O)O)[C@@H]3O)[C@@H](O)[C@H]2O)c1 | pH 9, 25 °C, added: saccharopine | 150
B4 (LYS1 C205S/D319A) | NCCCC[C@H](N)C(=O)O | pH 7.2, 25 °C, added: NADH and α-Kg | 1200
B5 (POLK T408W/W214Y/W392H) | Nc1ccn([C@H]2C[C@H](O)[C@@H](COP(=O)(O)OP(=O)(O)OP(=O)(O)O)O2)c(=O)n1 | pH 7.5, 23 °C, MgCl2 5 mM, added: G template | 1.3
B6 (enzyme) | O=P(O)(O)OC[C@H](O)CO | pH 8, 37 °C, apparent | 4030
B7 (PTR1) | NC(=O)C1=CN([C@@H]2O[C@H](COP(=O)(O)OP(=O)(O)OC[C@H]3O[C@@H](n4cnc5c(N)ncnc54)[C@H](OP(=O)(O)O)[C@@H]3O)[C@@H](O)[C@H]2O)C=CC1 | pH 7.4, 25 °C, apparent, cofactor varied | 1.7
B8 (LdmS) | CSCC[C@H](N)C(=O)O | pH 8, 37 °C, added: ATP 2.5 mM, L-Asp 50 mM, MgCl2 5 mM | 580
B9 (MPO) | CC(=O)N1c2ccc(O)cc2Oc2cc(O)ccc21 | 25 °C, stopped-flow, integrated fit | 39

A few entries again:
Molecule | substrate | setting | Km [µM]
B3 (PPIP5K2) | Nc1ncnc2c1ncn2[C@@H]1O[C@H](COP(=O)(O)OP(=O)(O)OP(=O)(O)O)[C@@H](O)[C@H]1O | – | 22
